# Published values gathered from unrelated publications.
# Each numbered part is a random draw from the data of one study; scales do not carry over between parts. Changes are numbered by the printed parent chain.

# Series 1 — method: RNA Bind-n-Seq; form: RNA; matrix: in vitro; tested at: 20 nM; setting: 6-mer, flanks averaged, single round; added: 150 mM LiCl; baseline: input library; direction: higher = stronger binding
# Target: TAR DNA-binding protein 43, full length, His tag (TARDBP, Homo sapiens, UniProt Q13148, residues 1-414)
Strand,6-mer enrichment (R)
GCUCUA,0.846
CAGUUA,0.906
UUCUUA,0.994
CACGAG,0.861
GUGUAU,1.56
GAACUG,0.915
UCCUAA,0.849
GUAUUU,1.15

# Series 2 — method: RNA Bind-n-Seq; form: RNA; matrix: in vitro; tested at: not given; setting: RNA with constant flanks, ends assumed; baseline: input RNA pool; direction: higher = stronger binding
# Target: RING finger protein unkempt homolog, zinc fingers 1-6, GST-SBP tag (UNK, Homo sapiens, UniProt Q9C0B0, residues 30-357)
# All sequences stand within: GGGAGUUCUACAGUCCGACGAUC … CAACAGAGGAUUGAGCAUCA
# Target sequence (chain): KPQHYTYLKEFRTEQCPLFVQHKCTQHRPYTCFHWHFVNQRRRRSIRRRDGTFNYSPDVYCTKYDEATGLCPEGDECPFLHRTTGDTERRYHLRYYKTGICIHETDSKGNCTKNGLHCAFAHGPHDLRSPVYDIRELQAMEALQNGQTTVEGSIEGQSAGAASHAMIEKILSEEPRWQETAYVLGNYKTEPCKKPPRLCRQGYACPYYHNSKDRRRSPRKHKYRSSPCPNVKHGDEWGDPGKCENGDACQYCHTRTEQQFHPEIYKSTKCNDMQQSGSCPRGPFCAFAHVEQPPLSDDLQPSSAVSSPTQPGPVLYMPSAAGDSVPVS
Strand,bound/input enrichment [ratio]
GGAAGCACAUUAAUGGAAAUAGAUGGCGAUAAAGGCAAACAAGGCGGUCCCACCUACUACACCGAUACUAAUGCUCUGCGUGUUCCGAGGGAGAAUAUGGAGGCCAUUUCACCUCUAAAA,0.167
AAAAGAUCUAAUCCUCAAGUUGGUGUAGCCUUCCCUUACAUUAAGGACGCCUAUGAGUGUUCCGUUUAUGUGCAGCUGCCUUUCAUGGAAGACUUGCGGCAAUACAUGUUUUCCUCGCUG,0.12
AGAUCUCAUAAAGAGAGCUCACGGUCCAGGUCAUCUCACAAAGAUUCUCCUAGAGAUGUCCGCAAAAAAGCCAAAAGAUCACCAUCUGGUUCAAGGACACCUAAAAGGUCUAGGCGAUCA,0.111
GCUGCUUUUCACAGUUUAGUGGGUUUGGCAGCUGUACUUACUUGCAUAGCUGAGUACAUUACCGAAUAUCCACAUUUUGCUACGGAUGCAGCAGCAAAUCUCACCAAGAUUGUGGCCUAC,0.103
UGCCGGCUCUGUUUUUCUGUAAAUAAAUUUGCAUAUUUUGUAGGACUUUUAAUUGUAAUGACCGAGAAAAAAACAAGGAAAACUAUUUAAUGAAAGCACGAUAUUUAUCUUUGGUAAAUG,0.269
GAAGCUGCAGCACUACUAGAAAGUGGUAGUUCAGUGGGCGAUGAGACCGAUCUUGCUAAUUCCGGGGAUGUAUCUUCUGAUGGGAAAAAGGAGCCUUCAGAUAAAGCUGUGAAAAAAGAU,0.0811
GCAUCCUGUGAAAAUACUCUUAAUACGUUAAGAUAUGCAAAUAGAGUAAAGGAGUUUGGAAUCCGUCCUUCAGACAUUCCCUUCUCCCAGGGUGGUGGCAGUCGCCCUGAUCUCUCUCCU,0.114
CUUUAAGUCUCUGAGAGGAGGCUGAAGAGUGUUGGGGCUCCUGGGACAUACAUGUAGAGUUCCCCGCAAAGUGGGCGCCUUUCUCGUCCACAGCAUUUAAAGAGAGGAAGGAGAACCAUC,0.263

# Series 3 — target: CCNE1, cyclin fold, Cln2 fusion (human); method: yeast growth competition, sequencing; matrix: yeast; setting: strong parent motif; baseline: not given; direction: higher = stronger binding; starting sequence: viral docking peptide; YKVKRRLVFGADD
Change,normalised enrichment score
YKVKRRLVFGAQD [D12Q],5.19
YLVKRRLVFGADD [K2L],5.22
YKVKRRLVYGADD [F9Y],2.84
YKVKKRLVLGADD [R5K F9L],0.298
YKVTRRLVFGADD [K4T],2.58
YKVKRRWVFGADD [L7W],0.42
YKVKRRLVTGADD [F9T],0.617
YKVKRRLVFGAPD [D12P],4.99
YKYKRRLVFGADD [V3Y],3.64
YKVKRRLVAGADD [F9A],-0.689
YKVKRRLVFAADD [G10A],5.76
YKVKRRLVFGASD [D12S],5.35
YKVKGRLVFGADD [R5G],0.372
YKVKRRQVFGADD [L7Q],-0.0538
YKVKRRLVEGADD [F9E],0.138
YKDKRRLVFGADD [V3D],0.372
YKVKRRLVFGNDD [A11N],6.36
YKCKRRLVFGADD [V3C],5.37
YKVKRRLGFGADD [V8G],2.15
YKAKRRLVFGADD [V3A],5.67
YKVKRRLVLGADD [F9L],1.42
YHVKRRLVFGADD [K2H],6.58
YKVKRRKVFGADD [L7K],0.519
YKVKRRLVRGADD [F9R],-0.059
YQVKRRLVFGADD [K2Q],5.75

# Series 4 — method: RNAcompete; form: RNA; matrix: in vitro; tested at: 20 nM; setting: 7-mer, probes averaged, single round; baseline: mean of 7-mers; direction: higher = stronger binding
# Target: PABPC1L2, full length, GST fusion (mouse, UniProt A0ABA7IW68)
Strand,7-mer Z-score
AGCCCUG,-0.367
AGUUCAU,-0.112
UUAGCCC,-0.333
UAGGAUA,-0.0319
AGCAACC,0.00979
CCUGCUA,-0.193
AUCUAUC,-0.206
GAAGUGU,-0.146

# Series 5 — target: vanadate, free oxyanion; method: microfluidic competitive inhibition; matrix: in vitro, cell-free expressed; tested at: not given; direction: lower = stronger binding
# Setting: derived from inhibition constants, unchanged parent 676 nM
# Starting sequence: PafA, mature enzyme, eGFP fusion (Elizabethkingia meningoseptica, UniProt Q9KJX5); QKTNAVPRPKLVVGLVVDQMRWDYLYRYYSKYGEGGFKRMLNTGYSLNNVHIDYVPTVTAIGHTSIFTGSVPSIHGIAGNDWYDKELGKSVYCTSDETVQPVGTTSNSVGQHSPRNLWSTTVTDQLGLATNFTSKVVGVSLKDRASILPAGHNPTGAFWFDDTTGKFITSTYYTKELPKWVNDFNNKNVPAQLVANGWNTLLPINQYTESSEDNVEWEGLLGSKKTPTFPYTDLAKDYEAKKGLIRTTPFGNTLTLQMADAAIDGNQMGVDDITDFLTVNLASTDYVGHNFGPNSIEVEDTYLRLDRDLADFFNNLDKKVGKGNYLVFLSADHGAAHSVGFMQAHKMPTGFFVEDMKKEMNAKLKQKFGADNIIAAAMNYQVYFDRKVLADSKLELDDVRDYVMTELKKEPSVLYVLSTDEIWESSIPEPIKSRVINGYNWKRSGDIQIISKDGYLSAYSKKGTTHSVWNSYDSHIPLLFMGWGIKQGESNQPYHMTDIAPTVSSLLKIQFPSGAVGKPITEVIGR
Change,oxyanion analog dissociation constant
T232G,658 nM
S513G,508 nM
T253V,1.62 µM
